{"data": "Measured values pooled from the literature", "note": "Protocols differ between the studies behind these lines. Several values in a cell are separate wells, animals, samples, runs or records. ± gives the spread as reported."}
{"Compound": "COc1nnc2ccc(N3CCC(c4ccc(OCCN5CCN(C)C(=O)[C@H]5C)cc4)CC3)nn12", "test system": "human, plasma", "conditions": "oral, 2 mg once daily, single dose, monotherapy", "endpoint": "AUClast", "value": "0.0837 µM·h"}
{"Compound": "C=CCN1CC(=O)N2[C@@H](Cc3ccc(O)cc3F)C(=O)N(Cc3cccc(N4CC(N5CCN(CC)CC5)C4)n3)C[C@@H]2N1C(=O)NCc1ccccc1", "test system": "advanced solid tumour patients", "conditions": "oral, 20 mg twice daily, any grade, dose-escalation", "endpoint": "treatment-related AST increased", "value": "0%"}
{"Compound": "COc1ccc([C@@H](O)c2cc(-c3ncnc4cc(N5CCOCC5)ccc34)c(F)cc2Cl)nn1", "test": "geometric mean", "test system": "healthy volunteers, urine", "conditions": "oral, 100 mg, high-fat fed tablet", "endpoint": "renal clearance", "value": "0.827 mL/min"}
{"Compound": "Cc1cc(NC2CCN(C(=O)OC3CCN(C(=O)/C=C/CN(C)C)C3)CC2)n2ncc(C(C)C)c2n1 (stereo not shown)", "test": "Phase I dose escalation CTCAE v4.0, measured: Anemia", "test system": "patients with advanced solid tumours", "conditions": "dose not given, all dose schedules any grade", "endpoint": "patients with adverse event", "value": "28%"}
{"Compound": "CCN1/C(=C/C(C)=O)Sc2ccc(F)cc21", "test system": "cynomolgus monkey", "conditions": "oral, 10 mg/kg, 1 h post-dose", "endpoint": "systolic blood pressure", "value": "110 ± 7 mmHg"}
{"Compound": "CCc1c(-c2ccccc2)c(-c2ccccc2)nn1-c1ccccc1-c1cccc(OCC(=O)O)c1", "test system": "female Sprague-Dawley rat, ovary", "conditions": "oral, 10 mg/kg, 1 h", "endpoint": "concentration", "value": "1750 ng/g"}
{"Compound": "COc1ccc(/S(=N/C(=O)C(C)(C)C)c2ccc(C)cc2)cc1 (stereo not shown)", "test system": "human liver microsomes", "how to read": "baseline: hepatic blood flow", "endpoint": "metabolic stability", "value": "44%"}
{"Compound": "Cc1ccc([C@@H]2O[C@H](CO)[C@@H](O)[C@H](O)[C@H]2O)cc1Cc1ccc(-c2ccc(F)cc2)s1", "test system": "Japanese type 2 diabetes patients", "conditions": "400 mg, day 5, 24 h urine collection", "how to read": "baseline: baseline", "endpoint": "urinary potassium excretion change", "value": "-2.98 mEq"}
{"Compound": "CN1C[C@H](COc2nccc3c(NCc4ccco4)cc(Cl)nc23)OC1=O", "test system": "rabbit NZW female, isolated Langendorff heart", "conditions": "10 µM, 15 min", "endpoint": "left ventricular end-diastolic pressure", "value": "6 mmHg"}
{"Compound": "COc1ccnc(C(N)=O)c1O", "test": "aerobic dark soil incubation", "test system": "soil", "conditions": "geometric mean of 4 soils, persistence endpoint", "endpoint": "DT50", "value": "11.8 days"}
{"Compound": "CC(=O)CC(c1ccccc1)c1c(O)c2ccccc2oc1=O (stereo not shown)", "test system": "human liver microsomes", "conditions": "with: NADPH", "endpoint": "metabolic stability", "value": "stable"}
{"Compound": "COc1cc(Nc2ncc3c(n2)-c2ccc(Cl)cc2C(c2c(F)cccc2OC)=NC3)ccc1C(=O)O", "test": "measured: Tracheitis, grade 4", "test system": "cancer patients, phase 1/2", "conditions": "oral, dose not given, with: pembrolizumab", "endpoint": "patients with adverse event", "value": "4%"}
{"Compound": "CCn1cc(C(=O)N2CCOCC2)c(=O)c2cc(NC3Cc4ccccc4C3)cnc21", "test system": "human, fasted", "conditions": "oral suspension, 2000 mg single dose, median", "endpoint": "Tmax", "value": "1.5 h"}
{"Compound": "Cc1cn([C@H]2C[C@H]([18F])[C@@H](CO)O2)c(=O)[nH]c1=O", "test": "PET/CT", "test system": "Sprague-Dawley rat", "conditions": "intranasal", "endpoint": "nasal cavity clearance time", "value": "≤ 20 min"}
{"Compound": "CC[C@H](C)[C@H](NC(=O)[C@H](CO)NC(=O)[C@H](Cc1ccc(O)cc1)NC(=O)[C@H](CC(=O)O)NC(=O)[C@H](CO)NC(=O)[C@@H](NC(=O)[C@H](Cc1ccccc1)NC(=O)[C@@H](NC(=O)CNC(=O)[C@H](CCC(=O)O)NC(=O)[C@H](C)NC(=O)[C@@H](N)Cc1ccc(O)cc1)[C@@H](C)O)[C@@H](C)CC)C(=O)N[C@@H](C)C(=O)N[C@@H](CCSC)C(=O)N[C@@H](CC(=O)O)C(=O)N[C@@H](CCCCN)C(=O)N[C@H](C(=O)N[C@@H](Cc1c[nH]cn1)C(=O)N[C@@H](CCC(N)=O)C(=O)N[C@@H](CCC(N)=O)C(=O)N[C@@H](CC(=O)O)C(=O)N[C@@H](Cc1ccccc1)C(=O)N[C@H](C(=O)N[C@@H](CC(N)=O)C(=O)N[C@@H](Cc1c[nH]c2ccccc12)C(=O)N[C@@H](CC(C)C)C(=O)N[C@@H](CC(C)C)C(=O)N[C@@H](C)C(=O)N[C@@H](CCC(N)=O)C(=O)N[C@@H](CCCCN)C(=O)NCC(=O)N[C@@H](CCCCN)C(=O)N[C@@H](CCCCN)C(=O)N[C@@H](CC(N)=O)C(=O)N[C@@H](CC(=O)O)C(=O)N[C@@H](Cc1c[nH]c2ccccc12)C(=O)N[C@@H](CCCCN)C(=O)N[C@@H](Cc1c[nH]cn1)C(=O)N[C@@H](CC(N)=O)C(=O)N[C@H](C(=O)N[C@H](C(=O)N[C@@H](CCC(N)=O)C(=O)O)[C@@H](C)O)[C@@H](C)CC)C(C)C)[C@@H](C)CC", "test": "GIPR luciferase bioassay", "test system": "C57BL/6 mice, male, serum", "conditions": "subcutaneous, 1.25 µg, below detection limit", "endpoint": "serum concentration", "value": "< 0.05 nM"}
{"Compound": "Cc1ccc(C(=O)N(CCCN)C(c2nc3snc(C)c3c(=O)n2Cc2ccccc2)C(C)C)cc1 (stereo not shown)", "test system": "human patients", "conditions": "intravenous, 18 mg/day", "endpoint": "grade ≥3 hypokalemia patients", "value": "25%"}
{"Compound": "N#Cc1ccc2c(c1)[C@H]1CCCN(C(=O)c3ccc4[nH]cnc4c3)[C@H]1C2", "test system": "human males", "conditions": "20 mg, end of trial", "endpoint": "SHBG level", "value": "36.3 nmol/L"}
{"Compound": "Oc1ccc(/C=C/c2cc(O)cc(O)c2)cc1", "test system": "rat, azoxymethane-injected, blood at sacrifice", "conditions": "100 mg/kg", "endpoint": "creatinine", "value": "0.38 mg/dL and 0.29 mg/dL and 0.3 mg/dL"}
{"Compound": "Cc1cc(Nc2ccc(S(F)(F)(F)(F)F)cc2)n2nc(C(C)(F)F)nc2n1", "test system": "Plasmodium falciparum malaria patients", "conditions": "oral, 400 mg", "endpoint": "adverse event Fatigue", "value": "0%"}
{"note": "Repeated from above:"}
{"Compound": "COc1ccc(/S(=N/C(=O)C(C)(C)C)c2ccc(C)cc2)cc1 (stereo not shown)", "test system": "human liver microsomes", "how to read": "baseline: hepatic blood flow", "endpoint": "metabolic stability", "value": "44%"}
